{"data": "Values quoted from earlier work, collected from citations in different studies", "note": "Lines come from different studies, so protocols differ. ± gives the spread as reported."}
{"Structure (SMILES)": "COCCOCCOCCOCCC(=O)NCc1cc(CNC(=O)CCOCCOCCOCCOC)cc(-c2cc3cc4nc(c(OC)c5[nH]c(cc6nc(cc2[nH]3)CC6(C)C)cc5-c2cc(CNC(=O)CCOCCOCCOCCOC)cc(CNC(=O)CCOCCOCCOCCOC)c2)CC4(C)C)c1", "system": "PBS", "setting": "room temperature", "endpoint": "Qy/B absorption intensity ratio", "result": 0.77}
{"Structure (SMILES)": "C=CC(O)c1ccc(OC)cc1 (stereo not shown)", "system": "male rat, kidney microsomes", "endpoint": "Km", "result": "22 µM"}
{"Structure (SMILES)": "O=c1cc(-c2ccccc2)c2cc(Br)ccc2n1Cc1nnc2n1N=C(c1ccccc1)CS2", "tested on": "Escherichia coli", "endpoint": "MIC", "result": "2 µg/mL"}
{"Structure (SMILES)": "N=C(N)NCCC[C@H](NC(=O)[C@H](Cc1c[nH]c2ccccc12)NC(=O)[C@H](CCC(N)=O)NC(=O)[C@H](Cc1c[nH]c2ccccc12)NC(=O)[C@H](CCCNC(=N)N)NC(=O)[C@@H](N)CCCNC(=N)N)C(=O)NCCCC[C@H](NC(=O)[C@H](CCCNC(=N)N)NC(=O)[C@H](Cc1c[nH]c2ccccc12)NC(=O)[C@H](CCC(N)=O)NC(=O)[C@H](Cc1c[nH]c2ccccc12)NC(=O)[C@H](CCCNC(=N)N)NC(=O)[C@@H](N)CCCNC(=N)N)C(=O)NCCCCCC(=O)N[C@@H](CSSC[C@H](NC(=O)CCCCCNC(=O)[C@H](CCCCNC(=O)[C@H](CCCNC(=N)N)NC(=O)[C@H](Cc1c[nH]c2ccccc12)NC(=O)[C@H](CCC(N)=O)NC(=O)[C@H](Cc1c[nH]c2ccccc12)NC(=O)[C@H](CCCNC(=N)N)NC(=O)[C@@H](N)CCCNC(=N)N)NC(=O)[C@H](CCCNC(=N)N)NC(=O)[C@H](Cc1c[nH]c2ccccc12)NC(=O)[C@H](CCC(N)=O)NC(=O)[C@H](Cc1c[nH]c2ccccc12)NC(=O)[C@H](CCCNC(=N)N)NC(=O)[C@@H](N)CCCNC(=N)N)C(N)=O)C(N)=O", "tested on": "Escherichia coli", "assay": "broth microdilution", "system": "ATCC 25922", "endpoint": "MIC", "result": "22 µM"}
{"Structure (SMILES)": "CCN1CCC(CCNCc2cc3ccccc3nc2SCc2ccccc2)CC1", "tested on": "Pseudomonas aeruginosa", "system": "multidrug-resistant", "endpoint": "MIC", "result": "16 to 64 µg/mL"}
{"Structure (SMILES)": "Cc1cccc2nc3c(O)c(Br)c(Cl)c(Br)c3nc12", "tested on": "Staphylococcus aureus", "system": "MRSA", "endpoint": "MIC", "result": "0.08 µM"}
{"Structure (SMILES)": "CSCC[C@H](NC(=O)[C@H](CCCNC(=N)N)NC(=O)[C@H](Cc1c[nH]c2ccccc12)NC(=O)[C@H](CCC(N)=O)NC(=O)[C@H](Cc1c[nH]c2ccccc12)NC(=O)[C@H](CCCNC(=N)N)NC(=O)[C@H](CCCNC(=N)N)NC(=O)[C@H](C)NC(=O)[C@H](CCCCN)NC(=O)[C@@H](N)Cc1ccccc1)C(=O)N[C@@H](CCCCN)C(=O)N[C@@H](CCCCN)C(=O)N[C@@H](CC(C)C)C(=O)NCC(=O)N[C@@H](C)C(=O)NCCCC[C@H](NC(=O)[C@H](C)NC(=O)CNC(=O)[C@H](CC(C)C)NC(=O)[C@H](CCCCN)NC(=O)[C@H](CCCCN)NC(=O)[C@H](CCSC)NC(=O)[C@H](CCCNC(=N)N)NC(=O)[C@H](Cc1c[nH]c2ccccc12)NC(=O)[C@H](CCC(N)=O)NC(=O)[C@H](Cc1c[nH]c2ccccc12)NC(=O)[C@H](CCCNC(=N)N)NC(=O)[C@H](CCCNC(=N)N)NC(=O)[C@H](C)NC(=O)[C@H](CCCCN)NC(=O)[C@@H](N)Cc1ccccc1)C(=O)NCCCCCC(N)=O", "tested on": "Escherichia coli", "assay": "broth microdilution", "system": "ATCC 25922", "endpoint": "MIC", "result": "24 µM"}
{"Structure (SMILES)": "F[P-](F)(F)(F)(F)F.O=C(CCC(=O)[c-]1cccc1)NCCN(CC(=O)Nc1ccc(C#CCN(Cc2ccccn2)Cc2ccccn2)cc1)C(=O)CCc1cn(C[c-]2cccc2)nn1.[C-]#[O+].[C-]#[O+].[C-]#[O+].[C-]#[O+].[C-]#[O+].[C-]#[O+].[Mn+].[Re+].[Ru+2].c1cc[cH-]c1", "tested on": "Bacillus subtilis, Staphylococcus aureus", "system": "incl. MRSA", "endpoint": "MIC", "result": "4 to 32 µg/mL"}
{"Structure (SMILES)": "CCCCCCc1cc(-c2cc(Cl)sc2Cl)[nH]c(=O)c1C#N", "tested on": "Bacillus subtilis", "endpoint": "MIC", "result": "78 µg/mL"}
{"Structure (SMILES)": "CC(C)C[C@@H](NC(=O)[C@@H](CCC(=O)O)NC(=O)[C@@H](CC(C)C)NC(=O)[C@@H](CC(C)C)NC(=O)[C@@H](CC(C)C)NC(=O)[C@H](NC(=O)[C@@H](CCC(=O)O)NC(=O)[C@H](NC(=O)[C@H]1CCCN1C(=O)[C@@H](Cc1ccccc1)NC(=O)[C@@H](CC(C)C)NC(=O)[C@@H](Cc1c[nH]c2ccccc12)NC(=O)[C@@H](CCC(=O)O)NC(=O)[C@@H](CC(C)C)NC(=O)[C@@H](Cc1ccc(O)cc1)NC(=O)[C@@H](CCCNC(=N)N)NC(=O)[C@@H](C)NC(=O)[C@@H](Cc1c[nH]c2ccccc12)NC(=O)[C@H]1CCCN1C(=O)[C@@H](CC(N)=O)NC(=O)[C@@H](CCC(N)=O)NC(=O)[C@@H](CCC(=O)O)NC(=O)[C@@H](CCC(=O)O)NC(=O)[C@@H](CS)NC(=O)[C@@H](C)NC(=S)Nc1ccc(CC2CN(CC(=O)O)CCN(CC(=O)O)CCN2CC(=O)O)cc1)[C@H](C)O)[C@H](C)O)C(=O)O (stereo partly shown) [copper-64 labelled]", "system": "tumour", "setting": "concentration not given", "endpoint": "tumour uptake", "result": "1.36 ± 0.43 %ID/g"}
{"Structure (SMILES)": "CC(=O)O[C@H]1C2=C(C(=O)C(OC(=O)c3ccc(Cl)cc3)=C(C(C)C)C2=O)[C@@]2(C)CCCC(C)(C)[C@@H]2[C@@H]1OC(=O)c1ccc(Cl)cc1", "tested on": "MCF7", "assay": "cell growth", "endpoint": "GI50", "result": "> 30 µM"}
{"Structure (SMILES)": "Cc1cc(C#N)nc(N2CCN(S(=O)(=O)c3ccc(NC(=O)c4cc(CN5CC(CN)C5)ccc4N(C)S(C)(=O)=O)cc3)CC2)n1", "tested on": "Escherichia coli", "system": "25922", "endpoint": "MIC", "result": "2 µg/mL"}
{"Structure (SMILES)": "Cc1ccc(/N=N/c2c(C)c(C(=O)Nc3ccccc3)c(N)n(-c3ccccc3)c2=O)cc1", "tested on": "Streptococcus pneumoniae", "endpoint": "MIC", "result": "1.95 µg/mL"}
{"Structure (SMILES)": "CSCC[C@H](NC(=O)[C@H](CCCNC(=N)N)NC(=O)[C@H](Cc1c[nH]c2ccccc12)NC(=O)[C@H](CCC(N)=O)NC(=O)[C@H](Cc1c[nH]c2ccccc12)NC(=O)[C@H](CCCNC(=N)N)NC(=O)[C@@H](N)CCCNC(=N)N)C(=O)N[C@@H](CCCCN)C(=O)N[C@@H](CCCCN)C(=O)N[C@@H](CC(C)C)C(=O)NCC(=O)NCCCC[C@H](NC(=O)CNC(=O)[C@H](CC(C)C)NC(=O)[C@H](CCCCN)NC(=O)[C@H](CCCCN)NC(=O)[C@H](CCSC)NC(=O)[C@H](CCCNC(=N)N)NC(=O)[C@H](Cc1c[nH]c2ccccc12)NC(=O)[C@H](CCC(N)=O)NC(=O)[C@H](Cc1c[nH]c2ccccc12)NC(=O)[C@H](CCCNC(=N)N)NC(=O)[C@@H](N)CCCNC(=N)N)C(=O)NCCCCCC(=O)N[C@@H](CSSC[C@H](NC(=O)CCCCCNC(=O)[C@H](CCCCNC(=O)CNC(=O)[C@H](CC(C)C)NC(=O)[C@H](CCCCN)NC(=O)[C@H](CCCCN)NC(=O)[C@H](CCSC)NC(=O)[C@H](CCCNC(=N)N)NC(=O)[C@H](Cc1c[nH]c2ccccc12)NC(=O)[C@H](CCC(N)=O)NC(=O)[C@H](Cc1c[nH]c2ccccc12)NC(=O)[C@H](CCCNC(=N)N)NC(=O)[C@@H](N)CCCNC(=N)N)NC(=O)CNC(=O)[C@H](CC(C)C)NC(=O)[C@H](CCCCN)NC(=O)[C@H](CCCCN)NC(=O)[C@H](CCSC)NC(=O)[C@H](CCCNC(=N)N)NC(=O)[C@H](Cc1c[nH]c2ccccc12)NC(=O)[C@H](CCC(N)=O)NC(=O)[C@H](Cc1c[nH]c2ccccc12)NC(=O)[C@H](CCCNC(=N)N)NC(=O)[C@@H](N)CCCNC(=N)N)C(N)=O)C(N)=O", "tested on": "Escherichia coli", "assay": "broth microdilution", "system": "ATCC 11775", "endpoint": "MIC", "result": "15 µM"}
{"Structure (SMILES)": "C=CC(OC1OC(C(=O)O)C(O)C(O)C1O)c1ccc(OC)cc1 (stereo not shown)", "assay": "glucuronidation, substrate", "system": "male rat liver", "endpoint": "Km", "result": "137 µM"}
{"Structure (SMILES)": "N=C(N)NCCC[C@H](NC(=O)[C@H](Cc1c[nH]c2ccccc12)NC(=O)[C@H](CCC(N)=O)NC(=O)[C@H](Cc1c[nH]c2ccccc12)NC(=O)[C@H](CCCNC(=N)N)NC(=O)[C@@H](N)CCCNC(=N)N)C(=O)NCCCC[C@H](NC(=O)[C@H](CCCNC(=N)N)NC(=O)[C@H](Cc1c[nH]c2ccccc12)NC(=O)[C@H](CCC(N)=O)NC(=O)[C@H](Cc1c[nH]c2ccccc12)NC(=O)[C@H](CCCNC(=N)N)NC(=O)[C@@H](N)CCCNC(=N)N)C(=O)NCCCCCC(N)=O", "tested on": "Escherichia coli", "assay": "broth microdilution", "system": "ATCC 11775", "endpoint": "MIC", "result": "22 µM"}
{"Structure (SMILES)": "CC1(C)C2Cc3c(nc(O)c(C#N)c3-c3ccc(F)c(F)c3)C1C2 (stereo not shown)", "tested on": "Candida albicans", "endpoint": "MIC", "result": "15600 µg/mL"}
{"Structure (SMILES)": "COC(=O)c1cnc(-c2nc(C)cs2)cc1C(=O)OC.O.O=[N+]([O-])[O-].O=[N+]([O-])[O-].[Cu+2]", "tested on": "Candida albicans", "endpoint": "MIC", "result": "31.2 µg/mL"}
{"Structure (SMILES)": "CC(C)C1=C(O)C(=O)C2=C(C1=O)[C@H](OC=O)[C@@H](O)[C@H]1C(C)(C)CCC[C@]21C", "tested on": "HCT-116", "endpoint": "GI50", "result": "5 to 10 µM"}
{"Structure (SMILES)": "CCCC/C=C/C(=O)N[C@@H](Cc1cc(F)cc(F)c1)C(=O)OC", "tested on": "Bacillus subtilis", "endpoint": "MIC", "result": "8 µg/mL"}
{"Structure (SMILES)": "C/C=C1\\NC(=O)[C@H](Cc2ccccc2)NC(=O)[C@H](C(C)C)NC(=O)[C@H](Cc2ccccc2)NC(=O)[C@H](CCC(N)=O)NC(=O)[C@H](Cc2c[nH]c3ccccc23)NC(=O)[C@H]2CSC[C@@H](C(=O)N[C@@H](CO)C(=O)O)NC(=O)[C@H](CSC[C@H]3NC(=O)[C@H]([C@@H](C)CC)NC(=O)[C@H](NC(=O)[C@H](Cc4c[nH]cn4)NC(=O)[C@@H](NC(=O)[C@@H](NC(=O)CNC(=O)[C@H](CO)NC(=O)CNC(=O)CNC(=O)[C@@H](N)CCCCN)C(C)C)[C@@H](C)CC)[C@H](C)SC[C@H](NC(=O)[C@H](CCC(=O)O)NC(=O)[C@H](Cc4c[nH]cn4)NC3=O)C(=O)N[C@@H](CC(N)=O)C(=O)N[C@@H](CCSC)C(=O)N[C@@H](CC(N)=O)C(=O)N2)NC1=O", "tested on": "Lactococcus lactis subsp. cremoris", "system": "HP", "endpoint": "MIC", "result": "1.56 µM"}
{"Structure (SMILES)": "N=C(N)c1ccc(-c2ccc(-c3ccco3)o2)cc1", "tested on": "Escherichia coli", "endpoint": "MIC", "result": "16 µM"}
{"note": "A few entries again:"}
{"Structure (SMILES)": "N=C(N)NCCC[C@H](NC(=O)[C@H](Cc1c[nH]c2ccccc12)NC(=O)[C@H](CCC(N)=O)NC(=O)[C@H](Cc1c[nH]c2ccccc12)NC(=O)[C@H](CCCNC(=N)N)NC(=O)[C@@H](N)CCCNC(=N)N)C(=O)NCCCC[C@H](NC(=O)[C@H](CCCNC(=N)N)NC(=O)[C@H](Cc1c[nH]c2ccccc12)NC(=O)[C@H](CCC(N)=O)NC(=O)[C@H](Cc1c[nH]c2ccccc12)NC(=O)[C@H](CCCNC(=N)N)NC(=O)[C@@H](N)CCCNC(=N)N)C(=O)NCCCCCC(N)=O", "tested on": "Escherichia coli", "assay": "broth microdilution", "system": "ATCC 11775", "endpoint": "MIC", "result": "22 µM"}
